Measurements of several laboratories.
A part holds a random share of what one study measured.

Set 1
Target: Prothrombin, mature alpha-thrombin (F2, Homo sapiens, UniProt P00734)
Technique: aptamer microarray, sandwich
Molecule type: DNA with 2'F-ANA
Matrix: in vitro
Concentration: 200 nM
Notes: whole 15-mer aptamer, many near background
With: Cy3 exosite-II aptamer, 400 nM
Direction: higher = stronger binding
Oligonucleotide	mean fluorescence intensity
GGTTGGTGTGGTTGG (2'F-ANA at 3 5 6 8 12 13 15)	178 a.u.
GGTTGGTGTGGTTGG (2'F-ANA at 1 2 4 6 7 8 9 13 15)	92.2 a.u.
GGTTGGTGTGGTTGG (2'F-ANA at 1 2 3 4 7 8 12 14 15)	132 a.u.
GGTTGGTGTGGTTGG (2'F-ANA at 2 3 7 10 11 12 13 14)	296 a.u.

Set 2
Target: Sal-like protein 4, full length isoform A (SALL4, Homo sapiens, UniProt Q9UJQ4, residues 1-1053)
Sequence of UniProt Q9UJQ4 (whole entry, looked up): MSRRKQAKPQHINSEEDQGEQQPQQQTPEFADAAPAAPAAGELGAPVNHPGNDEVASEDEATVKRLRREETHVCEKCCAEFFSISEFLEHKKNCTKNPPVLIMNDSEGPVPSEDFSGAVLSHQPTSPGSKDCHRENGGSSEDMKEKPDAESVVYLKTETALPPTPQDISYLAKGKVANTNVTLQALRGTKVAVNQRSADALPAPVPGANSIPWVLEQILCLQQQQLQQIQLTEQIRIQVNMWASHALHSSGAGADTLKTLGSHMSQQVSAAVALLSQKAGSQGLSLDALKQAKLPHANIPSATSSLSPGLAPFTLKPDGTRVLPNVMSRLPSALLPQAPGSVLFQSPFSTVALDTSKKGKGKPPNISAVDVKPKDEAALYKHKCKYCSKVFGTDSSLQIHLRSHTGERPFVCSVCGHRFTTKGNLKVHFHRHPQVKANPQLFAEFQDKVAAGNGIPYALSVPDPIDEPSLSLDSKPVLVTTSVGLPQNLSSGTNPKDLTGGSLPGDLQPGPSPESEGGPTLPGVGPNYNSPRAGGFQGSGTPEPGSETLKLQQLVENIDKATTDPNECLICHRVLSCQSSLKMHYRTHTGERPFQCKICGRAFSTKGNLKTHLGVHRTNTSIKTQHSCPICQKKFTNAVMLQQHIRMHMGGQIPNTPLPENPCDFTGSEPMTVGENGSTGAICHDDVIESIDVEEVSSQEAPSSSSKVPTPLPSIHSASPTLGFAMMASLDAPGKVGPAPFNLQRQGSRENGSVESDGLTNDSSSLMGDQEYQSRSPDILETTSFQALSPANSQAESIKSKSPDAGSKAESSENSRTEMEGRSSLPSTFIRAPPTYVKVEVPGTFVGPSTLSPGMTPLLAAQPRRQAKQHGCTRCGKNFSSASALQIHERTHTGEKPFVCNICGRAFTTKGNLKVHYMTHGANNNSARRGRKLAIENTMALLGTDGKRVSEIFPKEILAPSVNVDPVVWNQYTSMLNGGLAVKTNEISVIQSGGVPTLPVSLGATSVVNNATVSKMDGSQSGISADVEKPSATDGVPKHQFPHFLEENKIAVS
Technique: universal PBM
Molecule type: double-stranded DNA, one strand shown
Matrix: in vitro
Concentration: 600 nM
Notes: 8-mer, flanks averaged, mean of replicates
Direction: higher = stronger binding
Oligonucleotide	E-score
CTGATCCC	-0.142
CGGGCTCA	-0.286
TGGCAAAA	0.261
CTCGTCAA	-0.0832

Set 3
Target: Histone acetyltransferase KAT6A, winged helix 2, GST fusion (KAT6A, Homo sapiens, UniProt Q92794, residues 85-181)
Technique: protein binding microarray
Molecule type: double-stranded DNA, one strand shown
Matrix: in vitro
Concentration: not given
Notes: 8-mer, flanks averaged, mean of 2 arrays, mostly near background
Baseline: not given
Direction: higher = stronger binding
Residues (chain): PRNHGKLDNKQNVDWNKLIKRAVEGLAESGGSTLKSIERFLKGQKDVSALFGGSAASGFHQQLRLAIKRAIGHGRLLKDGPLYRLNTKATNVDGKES
Oligonucleotide	E-score
ATCTCGAG	-0.0594
ATTAATTG	0.0751
GCCTAAGC	0.119
AGTAATGG	-0.04

Single results of other studies
Substance	target	test	test system	setting	how to read	endpoint	value
PhoQ, residues 284 288 289 292 302 303 AEGLLW	PhoP, residues 12 14 15 18 19 SPWRL (Escherichia coli, UniProt P23836)	Sort-seq, item: YFP reporter	E. coli	PhoQ-PhoP variant library, with: 10 µM Mg2+	baseline: high Mg2+ state, higher = stronger signaling	fold induction	0.704

A few entries again (single results of other studies):
Substance	target	test	test system	setting	how to read	endpoint	value
PhoQ, residues 284 288 289 292 302 303 AEGLLW	PhoP, residues 12 14 15 18 19 SPWRL (Escherichia coli, UniProt P23836)	Sort-seq, item: YFP reporter	E. coli	PhoQ-PhoP variant library, with: 10 µM Mg2+	baseline: high Mg2+ state, higher = stronger signaling	fold induction	0.704
